Measured values from different studies.
Lines come from different studies, so protocols differ. ± marks the error that the study gave.

Compound | test system | setting | Tmax
Cc1nc(C)c(C=[N+]([O-])C(C)(C)C)nc1C | healthy Chinese human, both sexes, serum | oral, 1200 mg twice daily, 7 days | 2.56 h
[2H]C([2H])([2H])Oc1cc2c(cc1OC([2H])([2H])[2H])[C@H]1CC(=O)[C@H](CC(C)C)CN1CC2 | human CYP2D6 extensive metabolizers, plasma | oral, 25 mg, fasted, median | 0.67 h
Cn1c(=O)oc2ccc(-c3ccc(CC(C#N)NC(=O)C4CNCCCO4)c(F)c3)cc21 (centres unmarked) | human volunteers, plasma | 15 mg single dose, fasted, median | 1 h
Nc1ncnc(NCC2CCN(C(=O)C(O)CO)CC2)c1-c1ccc(Oc2ccccc2)cc1 (centres unmarked) | male humans, plasma | oral, 75 mg evobrutinib, metabolite | 1 h
CCc1c2c(nc3ccc(O)cc13)-c1cc3c(c(=O)n1C2)COC(=O)[C@]3(O)CC | human patients, plasma | intravenous, 32 mg/m^2 of parent drug | 0.94 h
O=C(O[C@@H]1Cc2c(O)cc(O)cc2O[C@@H]1c1cc(O)c(O)c(O)c1)c1cc(O)c(O)c(O)c1 | human, male, plasma | oral, 135 mg, catechin-rich beverage | 1.4 ± 0.32 h
[2H]C([2H])([2H])NC(=O)c1ccc(N2C(=S)N(c3ccc(C#N)c(C(F)(F)F)c3)C(=O)C2(C)C)cc1F | human, male | oral, 160 mg, single dose, fed, median | 2 h
O=C(CCc1ccc(CNC(C(=O)OC2CCCC2)C2CCCCC2)cn1)NO (centres unmarked) | human, plasma | oral, 40 mg, single dose, median | 0.5 h
CC(=O)N[C@H](CC(=O)O)C(=O)N[C@H](Cc1c[nH]c2ccccc12)C(=O)N[C@H](Cc1ccccc1)C(=O)N[C@H](CCCCN)C(=O)N[C@H](C)C(=O)N[C@H](Cc1ccccc1)C(=O)N[C@H](Cc1ccc(O)cc1)C(=O)N[C@H](CC(=O)O)C(=O)N[C@H](CCCCN)C(=O)N[C@@H](C(=O)N[C@H](C)C(=O)N[C@H](CCC(=O)O)C(=O)N[C@H](CCCCN)C(=O)N[C@H](Cc1ccccc1)C(=O)N[C@H](CCCCN)C(=O)N[C@H](CCC(=O)O)C(=O)N[C@H](C)C(=O)N[C@H](Cc1ccccc1)C(N)=O)C(C)C | human, statin-treated high-risk CHD, both sexes, plasma | oral, 500 mg daily, day 13, median, detected subjects only | 1.27 h
O=C(CCc1ccc(CNC(C(=O)O)C2CCCCC2)cn1)NO (centres unmarked) | human, plasma | oral, 40 mg once daily, day 1, median | 1.01 h
CC12CC(c3ccc(S(C)(=O)=O)cc3)C3=C4CCC(=O)C=C4CCC3C1CCC2(O)C(F)(F)C(F)(F)F (centres unmarked) | human, plasma | oral, 4 mg, dosed on day 4, median, together with: itraconazole 200 mg/day | 2.25 h
COCC1CN(C2CCN(c3cc(OC)c(Nc4ncc(Br)c(Nc5ccc6c(c5P(C)(C)=O)OCCO6)n4)cc3C)CC2)C1 | human, plasma | oral, 10 to 240 mg, median single dose first-in-human | 1.98 to 4.01 h
CCCCCCCOc1ccc(CC[C@](N)(CO)COP(=O)(O)O)cc1C(F)(F)F | healthy human males, plasma | oral, 0.125 to 0.75 mg, day 1, median across doses | 12 h
C=CC(=O)Nc1cc(Nc2nccc(-c3cn(C4CC4)c4ccccc34)n2)c(OC)cc1N(C)CCNC | healthy Chinese male human, plasma | oral, 110 mg almonertinib, metabolite, [14C] single dose, fasted | 6.5 ± 2.52 h
CN1CCN(c2cc(-c3ccccc3CO)c(N(C)C(=O)C(C)(C)c3cc(C(F)(F)F)cc(C(F)(F)F)c3)cn2)CC1 | human, plasma | dose not given | 10 to 17 h
CCc1cc(Nc2nc(-c3ccc(-n4cnc(C)c4)c(F)c3)cs2)c(C)cc1C | human, both sexes, plasma | oral, 200 mg once daily, day 14, multiple dose, geometric mean | 3.7 h
CC(C)(O)c1ncc([S@](N)(=O)=NC(=O)Nc2c3c(cc4c2CCC4)CCC3)s1 | healthy human, fasted | oral, 100 mg single dose, capsule formulation | 2 h

A few entries again:
Compound | test system | setting | Tmax
COCC1CN(C2CCN(c3cc(OC)c(Nc4ncc(Br)c(Nc5ccc6c(c5P(C)(C)=O)OCCO6)n4)cc3C)CC2)C1 | human, plasma | oral, 10 to 240 mg, median single dose first-in-human | 1.98 to 4.01 h
CN1CCN(c2cc(-c3ccccc3CO)c(N(C)C(=O)C(C)(C)c3cc(C(F)(F)F)cc(C(F)(F)F)c3)cn2)CC1 | human, plasma | dose not given | 10 to 17 h
